{"data": "Assay results pooled from the literature", "note": "A part holds a random share of what one study measured.", "chain of UniProt O94768 (whole entry, looked up)": "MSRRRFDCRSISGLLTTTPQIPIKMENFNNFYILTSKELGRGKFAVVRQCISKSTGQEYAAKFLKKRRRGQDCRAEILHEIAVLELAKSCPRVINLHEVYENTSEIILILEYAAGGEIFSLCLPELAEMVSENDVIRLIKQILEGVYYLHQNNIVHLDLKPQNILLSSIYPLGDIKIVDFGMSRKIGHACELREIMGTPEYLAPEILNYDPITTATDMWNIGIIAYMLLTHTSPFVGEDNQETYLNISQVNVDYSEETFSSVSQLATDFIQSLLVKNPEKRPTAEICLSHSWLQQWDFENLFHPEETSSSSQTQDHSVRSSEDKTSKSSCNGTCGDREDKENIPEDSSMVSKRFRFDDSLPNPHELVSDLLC", "chain of UniProt P42336 (whole entry, unmodified, looked up)": "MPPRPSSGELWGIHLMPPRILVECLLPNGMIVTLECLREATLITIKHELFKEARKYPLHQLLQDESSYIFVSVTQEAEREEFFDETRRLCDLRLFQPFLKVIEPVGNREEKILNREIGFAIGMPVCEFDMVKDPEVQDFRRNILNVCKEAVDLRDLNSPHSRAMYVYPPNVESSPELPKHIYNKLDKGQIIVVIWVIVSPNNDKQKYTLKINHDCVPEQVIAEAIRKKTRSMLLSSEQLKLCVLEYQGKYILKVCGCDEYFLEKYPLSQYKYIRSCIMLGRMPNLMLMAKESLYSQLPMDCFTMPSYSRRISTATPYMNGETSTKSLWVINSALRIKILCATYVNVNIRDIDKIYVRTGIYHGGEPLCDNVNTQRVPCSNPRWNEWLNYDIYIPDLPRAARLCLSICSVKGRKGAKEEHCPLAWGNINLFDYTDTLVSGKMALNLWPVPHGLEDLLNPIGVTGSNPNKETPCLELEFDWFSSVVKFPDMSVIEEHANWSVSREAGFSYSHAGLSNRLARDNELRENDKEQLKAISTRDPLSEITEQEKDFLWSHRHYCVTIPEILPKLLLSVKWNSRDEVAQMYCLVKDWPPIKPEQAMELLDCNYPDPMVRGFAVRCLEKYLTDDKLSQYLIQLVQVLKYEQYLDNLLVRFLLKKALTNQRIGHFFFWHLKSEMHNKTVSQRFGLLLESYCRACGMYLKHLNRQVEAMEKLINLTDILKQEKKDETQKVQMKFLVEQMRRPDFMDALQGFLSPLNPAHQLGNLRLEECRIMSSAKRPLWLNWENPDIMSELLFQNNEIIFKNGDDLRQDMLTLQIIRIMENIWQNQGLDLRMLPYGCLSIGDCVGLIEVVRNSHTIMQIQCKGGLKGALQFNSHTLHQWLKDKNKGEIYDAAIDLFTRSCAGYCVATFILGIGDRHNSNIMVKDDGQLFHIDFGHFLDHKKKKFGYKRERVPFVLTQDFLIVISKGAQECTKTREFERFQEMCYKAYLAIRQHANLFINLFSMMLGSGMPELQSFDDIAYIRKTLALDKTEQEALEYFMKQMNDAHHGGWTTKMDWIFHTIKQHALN", "chain of UniProt P49840 (whole entry, looked up)": "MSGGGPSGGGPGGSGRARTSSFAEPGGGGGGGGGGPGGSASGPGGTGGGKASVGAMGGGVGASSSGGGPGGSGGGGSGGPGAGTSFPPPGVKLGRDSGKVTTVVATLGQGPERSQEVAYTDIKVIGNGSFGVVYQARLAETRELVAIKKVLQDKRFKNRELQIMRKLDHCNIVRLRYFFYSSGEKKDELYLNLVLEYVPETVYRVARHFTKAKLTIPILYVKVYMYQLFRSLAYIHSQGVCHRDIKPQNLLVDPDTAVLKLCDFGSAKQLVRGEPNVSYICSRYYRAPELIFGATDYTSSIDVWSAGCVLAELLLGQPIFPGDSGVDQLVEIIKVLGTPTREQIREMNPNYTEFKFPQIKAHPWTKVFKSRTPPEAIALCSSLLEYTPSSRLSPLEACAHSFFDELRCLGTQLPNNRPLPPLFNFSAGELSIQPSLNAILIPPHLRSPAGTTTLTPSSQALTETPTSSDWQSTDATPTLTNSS", "chain of UniProt P50613 (whole entry, looked up)": "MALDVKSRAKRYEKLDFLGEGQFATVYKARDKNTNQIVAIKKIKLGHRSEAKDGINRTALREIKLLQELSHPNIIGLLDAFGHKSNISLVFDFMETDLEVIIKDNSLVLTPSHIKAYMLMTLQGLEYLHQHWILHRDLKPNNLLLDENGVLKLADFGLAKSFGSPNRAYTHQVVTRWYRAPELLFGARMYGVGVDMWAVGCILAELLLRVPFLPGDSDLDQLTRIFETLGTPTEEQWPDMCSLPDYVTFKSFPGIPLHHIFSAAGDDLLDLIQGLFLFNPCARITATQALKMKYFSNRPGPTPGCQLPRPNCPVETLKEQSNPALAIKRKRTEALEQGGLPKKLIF", "chain of UniProt Q13705 (whole entry, looked up)": "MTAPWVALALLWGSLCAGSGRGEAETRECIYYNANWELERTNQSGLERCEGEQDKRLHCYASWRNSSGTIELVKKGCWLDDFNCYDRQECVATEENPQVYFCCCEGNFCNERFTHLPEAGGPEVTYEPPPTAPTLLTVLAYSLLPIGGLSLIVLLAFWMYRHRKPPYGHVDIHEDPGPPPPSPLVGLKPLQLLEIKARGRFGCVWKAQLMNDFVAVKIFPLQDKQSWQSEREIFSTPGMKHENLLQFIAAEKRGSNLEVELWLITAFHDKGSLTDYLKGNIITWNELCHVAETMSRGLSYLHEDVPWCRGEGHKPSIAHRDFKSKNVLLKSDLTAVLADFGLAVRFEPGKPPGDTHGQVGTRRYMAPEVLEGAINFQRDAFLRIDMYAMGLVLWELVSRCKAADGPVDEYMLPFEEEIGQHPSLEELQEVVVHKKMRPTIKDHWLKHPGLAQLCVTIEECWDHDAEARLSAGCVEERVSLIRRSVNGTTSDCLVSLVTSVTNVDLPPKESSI", "chain of UniProt Q13523 (whole entry, looked up)": "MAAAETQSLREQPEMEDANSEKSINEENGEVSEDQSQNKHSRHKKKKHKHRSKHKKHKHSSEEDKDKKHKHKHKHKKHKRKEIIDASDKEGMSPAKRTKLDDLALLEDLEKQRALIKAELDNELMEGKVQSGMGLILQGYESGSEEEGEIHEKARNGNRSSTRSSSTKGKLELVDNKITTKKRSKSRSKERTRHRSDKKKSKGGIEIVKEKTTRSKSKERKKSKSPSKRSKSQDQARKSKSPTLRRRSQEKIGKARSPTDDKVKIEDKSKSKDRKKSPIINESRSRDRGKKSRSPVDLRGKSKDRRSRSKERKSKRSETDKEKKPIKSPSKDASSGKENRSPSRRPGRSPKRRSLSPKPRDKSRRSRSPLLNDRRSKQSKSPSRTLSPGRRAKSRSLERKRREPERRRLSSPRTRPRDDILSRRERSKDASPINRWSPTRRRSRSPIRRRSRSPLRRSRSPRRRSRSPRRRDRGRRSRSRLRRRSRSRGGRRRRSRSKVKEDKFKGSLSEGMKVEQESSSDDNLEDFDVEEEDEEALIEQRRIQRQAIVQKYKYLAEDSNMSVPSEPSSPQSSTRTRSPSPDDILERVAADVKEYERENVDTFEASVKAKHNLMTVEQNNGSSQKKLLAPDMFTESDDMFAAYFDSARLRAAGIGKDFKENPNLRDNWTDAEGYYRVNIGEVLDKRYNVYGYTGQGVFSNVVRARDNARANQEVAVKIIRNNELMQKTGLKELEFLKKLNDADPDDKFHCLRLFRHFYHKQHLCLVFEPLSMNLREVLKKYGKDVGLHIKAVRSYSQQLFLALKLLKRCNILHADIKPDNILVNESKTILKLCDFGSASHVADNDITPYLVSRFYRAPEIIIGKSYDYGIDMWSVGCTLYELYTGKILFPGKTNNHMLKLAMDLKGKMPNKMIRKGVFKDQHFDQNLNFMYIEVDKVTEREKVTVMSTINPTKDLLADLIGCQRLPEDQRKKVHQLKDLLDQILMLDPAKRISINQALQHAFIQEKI"}
{"data": "Series 1", "organism": "Sarcocystis neurona", "effect on": "parasite growth", "concentration": "10 µM", "notes": "secondary screen"}
{"Structure (SMILES)": "CC(=O)OCC(=O)[C@@]1(O)CC[C@H]2[C@@H]3CCC4=CC(=O)CC[C@]4(C)[C@H]3C(=O)C[C@@]21C", "inhibition": "-1.9%"}
{"Structure (SMILES)": "Br.O=C1CC2(CCCC2)CC(=O)N1CCNCC1COc2ccccc2O1 (centres unmarked)", "inhibition": "32.4%"}
{"Structure (SMILES)": "CCC(C)n1ncn(-c2ccc(N3CCN(c4ccc(OCC5COC(Cn6cncn6)(c6ccc(Cl)cc6Cl)O5)cc4)CC3)cc2)c1=O (centres unmarked)", "inhibition": "-58.1%"}
{"Structure (SMILES)": "CC(C)c1nc(CN(C)C(=O)N[C@H](C(=O)N[C@@H](Cc2ccccc2)C[C@H](O)[C@H](Cc2ccccc2)NC(=O)OCc2cncs2)C(C)C)cs1", "inhibition": "11.6%"}
{"Structure (SMILES)": "CCn1cc(C(=O)O)c(=O)c2ccc(C)nc21", "inhibition": "-28.3%"}
{"Structure (SMILES)": "CCc1cccc2c3c([nH]c12)C(CC)(CC(=O)O)OCC3 (centres unmarked)", "inhibition": "-43%"}
{"Structure (SMILES)": "Nc1ccc2cn[nH]c2c1", "inhibition": "-41.6%"}
{"Structure (SMILES)": "C[C@@H]1C[C@H]2[C@@H]3C[C@H](F)C4=CC(=O)C(Cl)=C[C@]4(C)[C@@]3(F)[C@@H](O)C[C@]2(C)[C@@]1(O)C(=O)CO", "inhibition": "-7.7%"}
{"data": "Series 2", "SMILES": "O=C1NC(c2ccccn2)Sc2ccccc21 (centres unmarked)", "effect on": "cell-free assay", "technique": "competition with immobilised ligand", "concentration": "1 µM"}
{"target": "Serine/threonine-protein kinase PRP4 homolog (PRPF4B, Homo sapiens, UniProt Q13523)", "remaining binding": "78%"}
{"target": "Activin receptor type-2B (ACVR2B, Homo sapiens, UniProt Q13705)", "remaining binding": "100%"}
{"target": "Epidermal growth factor receptor (EGFR, Homo sapiens, UniProt P00533, G719C)", "remaining binding": "87%"}
{"target": "Serine/threonine-protein kinase 17B (STK17B, Homo sapiens, UniProt O94768)", "remaining binding": "73%"}
{"target": "Glycogen synthase kinase-3 alpha (GSK3A, Homo sapiens, UniProt P49840)", "remaining binding": "73%"}
{"target": "Cyclin-dependent kinase 7 (CDK7, Homo sapiens, UniProt P50613)", "remaining binding": "77%"}
{"target": "Phosphatidylinositol 4,5-bisphosphate 3-kinase catalytic subunit alpha isoform (PIK3CA, Homo sapiens, UniProt P42336, E545K)", "remaining binding": "73%"}
{"data": "Series 3", "host": "mouse", "medium": "microsomes or S9", "concentration": "2 µM", "time": "0.5 h"}
{"SMILES": "c1ccn2c(-c3noc(C4CCn5c(cnc5C5CCCCC5)C4)n3)cnc2c1 (centres unmarked)", "remaining compound [%]": 17.8}
{"SMILES": "O=C(Nc1ccc2nncn2c1)c1cccc2cc[nH]c12", "remaining compound [%]": 74.5}
{"SMILES": "CCOC(=O)C1=C(C)N=C2CC(C)(C)CC(O)=C2C1C (centres unmarked)", "remaining compound [%]": 49.2}
{"SMILES": "CC(=O)c1cc(-c2nccn2CCn2[nH]c(=O)ccc2=O)cs1", "remaining compound [%]": 93.7}
{"SMILES": "COCCCNc1nnc(Cc2ccc(Cl)cc2)c(O)n1", "remaining compound [%]": 87.1}
{"data": "Series 4", "target": "Tyrosine-protein kinase BTK (BTK, Homo sapiens, UniProt Q06187)", "effect on": "enzyme activity", "mode": "inhibitor", "concentration": "0.5 µM", "reference": "control", "chain of UniProt Q06187 (whole entry, looked up)": "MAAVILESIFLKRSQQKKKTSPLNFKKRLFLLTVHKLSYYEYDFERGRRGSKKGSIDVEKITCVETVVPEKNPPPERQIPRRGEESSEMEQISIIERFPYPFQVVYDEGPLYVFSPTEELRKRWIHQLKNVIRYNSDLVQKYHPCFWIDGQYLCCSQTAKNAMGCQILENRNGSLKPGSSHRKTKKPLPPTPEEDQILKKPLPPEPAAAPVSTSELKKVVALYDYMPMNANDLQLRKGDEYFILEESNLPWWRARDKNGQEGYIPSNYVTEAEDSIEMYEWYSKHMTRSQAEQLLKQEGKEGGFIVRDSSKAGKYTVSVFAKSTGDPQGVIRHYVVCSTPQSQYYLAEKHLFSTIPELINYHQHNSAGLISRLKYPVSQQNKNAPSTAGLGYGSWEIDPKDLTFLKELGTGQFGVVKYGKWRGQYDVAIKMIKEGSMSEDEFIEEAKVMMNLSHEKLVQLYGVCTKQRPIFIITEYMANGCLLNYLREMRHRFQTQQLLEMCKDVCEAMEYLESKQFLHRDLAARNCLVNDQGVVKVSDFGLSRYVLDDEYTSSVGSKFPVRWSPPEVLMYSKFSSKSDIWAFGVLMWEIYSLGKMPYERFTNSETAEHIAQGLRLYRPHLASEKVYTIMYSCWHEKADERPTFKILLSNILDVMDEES"}
{"Structure (SMILES)": "COc1ccc(OC)c2c(=S)c3ccccc3[nH]c12", "remaining activity [%]": 102}
{"Structure (SMILES)": "Cc1cccc(-c2[nH]c(C(C)(C)C)nc2-c2ccc3c(c2)OCO3)n1", "remaining activity [%]": 118}
{"Structure (SMILES)": "COc1cc2ncnc(Nc3ccc(Oc4ccccc4)cc3)c2cc1OC", "remaining activity [%]": 38.8}
{"Structure (SMILES)": "N#CC(C#N)=C(N)/C(C#N)=C/c1ccc(O)cc1", "remaining activity [%]": 99.7}
{"Structure (SMILES)": "Cn1c2ccccc2c2c3c(c4c5ccccc5n(CCC#N)c4c21)CNC3=O", "remaining activity [%]": 22}
{"Structure (SMILES)": "O=C(CCCc1ccc(-c2ccccc2F)cc1)Nc1ccc(O)cc1", "remaining activity [%]": 98.2}
{"Structure (SMILES)": "Nc1ccc2ncnc(NCCc3ccc(Oc4ccccc4)cc3)c2c1", "remaining activity [%]": 96.8}
{"Structure (SMILES)": "OCC(O)CCON=C1C(c2c(O)[nH]c3ccccc23)=Nc2ccccc21 (centres unmarked)", "remaining activity [%]": 24.1}
{"Structure (SMILES)": "Cn1sc(=O)n(Cc2ccccc2)c1=O", "remaining activity [%]": 103}
{"Structure (SMILES)": "Nc1ncnc2n[nH]c(Nc3ccc(F)cc3)c12", "remaining activity [%]": 82.3}
{"Structure (SMILES)": "Oc1ccc(-c2nc(-c3ccncc3)c(-c3ccc(F)cc3)[nH]2)cc1", "remaining activity [%]": 101}
{"Structure (SMILES)": "COc1ccc(C(=O)Nc2sc3c(c2C(N)=O)CCCC3)cc1OC", "remaining activity [%]": 104}
{"Structure (SMILES)": "COc1cc2ncnc(Nc3ccc(F)c(Cl)c3)c2cc1OCCCN1CCOCC1", "remaining activity [%]": 60.6}
{"Structure (SMILES)": "COc1cc2nccc(Oc3ccc(NC(=S)NC(=O)c4ccccc4C)cc3)c2cc1OC", "remaining activity [%]": 28.4}
{"Structure (SMILES)": "O=C(O)c1ccc2c3c1cccc3c(=O)n1c3ccccc3nc21", "remaining activity [%]": 109}
{"note": "Repeated from above (series 4):"}
{"Structure (SMILES)": "COc1ccc(C(=O)Nc2sc3c(c2C(N)=O)CCCC3)cc1OC", "remaining activity [%]": 104}
{"Structure (SMILES)": "COc1ccc(OC)c2c(=S)c3ccccc3[nH]c12", "remaining activity [%]": 102}
